Measured values from different studies.
Each line is one published result; not all experiments were run side by side. Numbers after ± are the reported error.
EIF4E: Eukaryotic translation initiation factor 4E (EIF4E, Homo sapiens, UniProt P06730)
Sequence of UniProt P21554 (whole entry, unmodified, looked up): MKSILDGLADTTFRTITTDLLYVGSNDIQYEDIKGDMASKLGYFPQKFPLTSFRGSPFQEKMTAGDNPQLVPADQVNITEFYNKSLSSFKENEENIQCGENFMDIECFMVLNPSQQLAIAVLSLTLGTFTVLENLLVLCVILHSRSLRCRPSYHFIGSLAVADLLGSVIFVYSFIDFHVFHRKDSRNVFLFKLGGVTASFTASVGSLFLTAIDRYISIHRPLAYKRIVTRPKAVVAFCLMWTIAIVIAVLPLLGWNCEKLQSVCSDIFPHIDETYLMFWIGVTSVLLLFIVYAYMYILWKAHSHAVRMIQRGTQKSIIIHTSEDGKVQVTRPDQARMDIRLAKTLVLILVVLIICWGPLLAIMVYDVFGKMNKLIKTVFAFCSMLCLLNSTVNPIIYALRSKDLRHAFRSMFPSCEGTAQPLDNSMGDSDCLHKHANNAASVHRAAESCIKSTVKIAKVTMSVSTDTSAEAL
Sequence of UniProt P06730 (whole entry, looked up): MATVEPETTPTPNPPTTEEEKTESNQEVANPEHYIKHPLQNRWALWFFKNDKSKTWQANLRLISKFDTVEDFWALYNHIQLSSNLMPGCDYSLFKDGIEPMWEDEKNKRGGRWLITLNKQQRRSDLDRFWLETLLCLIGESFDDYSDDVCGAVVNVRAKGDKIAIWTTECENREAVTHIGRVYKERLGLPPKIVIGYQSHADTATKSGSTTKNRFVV
Sequence of UniProt P28335 (whole entry, looked up): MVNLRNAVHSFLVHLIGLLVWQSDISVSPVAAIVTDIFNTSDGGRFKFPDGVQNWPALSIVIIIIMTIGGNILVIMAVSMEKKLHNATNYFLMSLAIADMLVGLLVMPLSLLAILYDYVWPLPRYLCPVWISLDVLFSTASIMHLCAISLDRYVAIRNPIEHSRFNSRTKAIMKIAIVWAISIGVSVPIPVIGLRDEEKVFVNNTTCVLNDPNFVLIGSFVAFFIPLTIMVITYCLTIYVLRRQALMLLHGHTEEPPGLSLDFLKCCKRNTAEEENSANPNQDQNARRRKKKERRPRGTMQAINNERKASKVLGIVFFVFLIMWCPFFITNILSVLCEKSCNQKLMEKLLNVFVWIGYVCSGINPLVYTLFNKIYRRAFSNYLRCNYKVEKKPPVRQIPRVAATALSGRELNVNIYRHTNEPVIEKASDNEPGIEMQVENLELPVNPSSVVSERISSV
Sequence of UniProt Q9UKP6 (whole entry, unmodified, looked up): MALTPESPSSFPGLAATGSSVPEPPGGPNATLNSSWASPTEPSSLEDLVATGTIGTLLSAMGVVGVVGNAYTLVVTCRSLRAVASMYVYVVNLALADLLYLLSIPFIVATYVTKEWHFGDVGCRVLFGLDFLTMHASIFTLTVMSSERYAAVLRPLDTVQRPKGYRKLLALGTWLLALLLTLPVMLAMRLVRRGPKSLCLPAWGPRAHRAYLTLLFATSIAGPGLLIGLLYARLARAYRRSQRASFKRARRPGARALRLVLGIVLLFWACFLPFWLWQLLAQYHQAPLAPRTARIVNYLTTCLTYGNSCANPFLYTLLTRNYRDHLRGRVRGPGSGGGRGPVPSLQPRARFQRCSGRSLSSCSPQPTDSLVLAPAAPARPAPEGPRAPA
Sequence of UniProt P50391 (whole entry, looked up): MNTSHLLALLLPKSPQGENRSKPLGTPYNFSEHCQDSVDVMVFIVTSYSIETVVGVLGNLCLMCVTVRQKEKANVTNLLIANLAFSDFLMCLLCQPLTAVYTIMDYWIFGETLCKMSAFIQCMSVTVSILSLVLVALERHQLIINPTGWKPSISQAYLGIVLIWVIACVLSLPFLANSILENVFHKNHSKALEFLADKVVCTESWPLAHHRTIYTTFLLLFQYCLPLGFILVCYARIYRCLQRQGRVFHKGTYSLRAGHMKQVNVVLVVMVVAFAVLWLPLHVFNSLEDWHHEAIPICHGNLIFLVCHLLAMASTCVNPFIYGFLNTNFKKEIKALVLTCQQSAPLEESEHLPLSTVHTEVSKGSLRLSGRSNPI
Sequence of UniProt P42679 (whole entry, looked up): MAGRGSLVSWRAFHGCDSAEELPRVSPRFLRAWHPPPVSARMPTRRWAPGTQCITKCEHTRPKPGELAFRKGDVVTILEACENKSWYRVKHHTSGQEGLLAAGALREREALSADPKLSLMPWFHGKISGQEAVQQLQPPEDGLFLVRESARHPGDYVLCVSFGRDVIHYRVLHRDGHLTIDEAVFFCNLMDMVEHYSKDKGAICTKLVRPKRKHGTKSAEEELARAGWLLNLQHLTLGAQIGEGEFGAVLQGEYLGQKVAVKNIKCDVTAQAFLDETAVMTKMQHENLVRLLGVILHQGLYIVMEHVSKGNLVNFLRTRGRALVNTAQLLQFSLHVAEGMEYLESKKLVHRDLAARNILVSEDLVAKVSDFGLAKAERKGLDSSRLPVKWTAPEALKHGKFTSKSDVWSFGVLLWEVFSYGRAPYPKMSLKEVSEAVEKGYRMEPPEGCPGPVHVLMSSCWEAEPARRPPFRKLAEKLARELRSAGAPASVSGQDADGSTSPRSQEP
Sequence of UniProt Q01959 (whole entry, unmodified, looked up): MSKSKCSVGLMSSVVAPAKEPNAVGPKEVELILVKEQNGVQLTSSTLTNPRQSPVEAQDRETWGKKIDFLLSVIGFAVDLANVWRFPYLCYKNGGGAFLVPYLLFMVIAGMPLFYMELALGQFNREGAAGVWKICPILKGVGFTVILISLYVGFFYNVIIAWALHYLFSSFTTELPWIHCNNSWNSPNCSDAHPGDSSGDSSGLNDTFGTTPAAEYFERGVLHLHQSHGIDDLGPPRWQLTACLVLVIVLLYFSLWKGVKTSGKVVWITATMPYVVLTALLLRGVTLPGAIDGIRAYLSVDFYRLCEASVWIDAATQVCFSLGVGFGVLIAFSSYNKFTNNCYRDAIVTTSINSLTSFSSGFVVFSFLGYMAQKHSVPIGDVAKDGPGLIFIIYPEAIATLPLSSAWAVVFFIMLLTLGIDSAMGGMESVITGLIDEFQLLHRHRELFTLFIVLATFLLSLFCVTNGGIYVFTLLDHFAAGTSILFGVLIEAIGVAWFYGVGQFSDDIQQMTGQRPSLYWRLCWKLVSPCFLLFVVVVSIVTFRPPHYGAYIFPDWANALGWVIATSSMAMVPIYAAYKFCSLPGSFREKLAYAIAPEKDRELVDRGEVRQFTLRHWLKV
Sequence of UniProt P18825 (whole entry, looked up): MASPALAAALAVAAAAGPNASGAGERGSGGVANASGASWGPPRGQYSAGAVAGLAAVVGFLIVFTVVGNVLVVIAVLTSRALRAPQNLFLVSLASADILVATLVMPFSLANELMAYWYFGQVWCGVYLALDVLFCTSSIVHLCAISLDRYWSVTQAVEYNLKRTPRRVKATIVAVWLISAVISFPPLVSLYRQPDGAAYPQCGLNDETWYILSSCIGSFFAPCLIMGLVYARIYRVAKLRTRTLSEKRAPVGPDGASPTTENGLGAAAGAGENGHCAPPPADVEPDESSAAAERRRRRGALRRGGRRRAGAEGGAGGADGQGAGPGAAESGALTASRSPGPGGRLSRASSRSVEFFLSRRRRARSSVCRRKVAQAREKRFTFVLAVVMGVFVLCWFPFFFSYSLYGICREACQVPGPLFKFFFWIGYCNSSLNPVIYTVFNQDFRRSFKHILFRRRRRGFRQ
Sequence of UniProt P43351 (whole entry, looked up): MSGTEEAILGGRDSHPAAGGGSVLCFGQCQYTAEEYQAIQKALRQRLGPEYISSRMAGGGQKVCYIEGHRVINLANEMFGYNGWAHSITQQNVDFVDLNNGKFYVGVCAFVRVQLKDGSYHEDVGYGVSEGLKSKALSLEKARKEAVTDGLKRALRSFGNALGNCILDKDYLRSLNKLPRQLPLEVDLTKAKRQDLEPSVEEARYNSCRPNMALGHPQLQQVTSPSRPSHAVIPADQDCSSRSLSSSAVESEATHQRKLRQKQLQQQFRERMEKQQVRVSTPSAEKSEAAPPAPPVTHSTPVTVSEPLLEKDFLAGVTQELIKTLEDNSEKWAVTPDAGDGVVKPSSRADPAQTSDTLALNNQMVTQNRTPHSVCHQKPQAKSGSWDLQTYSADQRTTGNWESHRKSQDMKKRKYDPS
Sequence of UniProt P62258 (whole entry, looked up): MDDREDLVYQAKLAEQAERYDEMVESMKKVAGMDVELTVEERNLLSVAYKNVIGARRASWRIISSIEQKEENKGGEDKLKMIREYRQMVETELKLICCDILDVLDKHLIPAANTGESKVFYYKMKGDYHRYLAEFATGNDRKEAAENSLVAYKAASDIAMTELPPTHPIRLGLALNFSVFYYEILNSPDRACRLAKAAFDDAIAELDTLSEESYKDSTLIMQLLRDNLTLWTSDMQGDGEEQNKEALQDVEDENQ

Structure (SMILES) | target or system | test | system | conditions | scale | endpoint | value
O[C@H]1[C@H](n2cnc3c(N[C@@H](C4CCC4)C4CC4)nc(I)nc32)[C@H]2C[C@@]2(C(F)F)[C@H]1O | HTR2C (Homo sapiens, UniProt P28335) | calcium signal, antagonist |  |  |  | Kb | 3.28 µM
Nc1nc2c(c(=O)[nH]1)[n+](Cc1cc3cc(Cl)ccc3o1)cn2C/C=C\CP(=O)(O)O | EIF4E | inhibitor, fluorescence polarization |  | 40 min, together with: m7GTP-FAM probe 15 nM |  | IC50 | 7.7 ± 2 µM
CS(C)(=O)=Nc1ccc(-c2ccc(-c3nc4cc(O[C@@H]5CO[C@H]6[C@@H]5OC[C@H]6O)[nH]c4cc3F)cc2)cc1 | MET (Homo sapiens, UniProt P08581, Y1230D) | enzyme activity, inhibitor |  | 10 µM |  | inhibition | -45%
CC(C)[C@H]1NC(=O)C[C@H]2/C=C/CCSSC[C@@H](NC1=O)C(=O)N[C@H](Cc1cccc3ccccc13)C(=O)NCC(=O)O2 | EGFR (Homo sapiens, UniProt P00533, L861Q) | enzyme activity, inhibitor |  | 10 µM |  | inhibition | -6.4%
O=C1NC2(CC2)COc2ncc(F)cc2[C@H]2COCCN2c2ccn3ncc1c3n2 |  |  | Sprague-Dawley rat, male, liver | oral, 5 mg/kg/day, 4 weeks dosing, end of recovery |  | organ-to-brain weight ratio | 647 ± 41.8%
CC(C)[C@H](NC(=O)[C@@H]1CSSC(C)(C)[C@H](NC(=O)[C@@H](N)CC(=O)O)C(=O)N[C@@H](Cc2ccccc2)C(=O)N[C@@H](Cc2c[nH]c3ccccc23)C(=O)N[C@@H](CCCCN)C(=O)N[C@@H](Cc2ccc(O)cc2)C(=O)N1)C(=O)O | UTS2R (Homo sapiens, UniProt Q9UKP6, L200A) | IP1 accumulation, agonist, HTRF | HEK293T cells | 1 h, 37 °C |  | EC50 | 0.000631 µM
Nc1nc2c(c(=O)[nH]1)[n+](Cc1cc3cc(Cl)ccc3s1)cn2C/C=C\CP(=O)(O)O | EIF4E | inhibitor, fluorescence polarization |  | 40 min, together with: m7GTP-FAM probe 15 nM |  | IC50 | 16 ± 0.2 µM
CC(=O)N[C@@H](CCCNC(=N)N)C(=O)N[C@@H](Cc1ccc(O)cc1)C(=O)N[C@@H](CCCNC(=N)NC(=O)NCCCCN)C(=O)N[C@@H](CC(C)C)C(=O)N[C@H](CCCNC(=N)N)C(=O)N[C@@H](Cc1ccc(O)cc1)C(N)=O | NPY4R (Homo sapiens, UniProt P50391) | calcium signal, antagonist |  |  |  | Kb | 0.737 µM
COc1ccccc1-c1n[nH]c2nc(NC3CCN(C(=O)Cc4ccc(F)cc4F)CC3)ncc12 |  | bead binding, competition bead pull-down, measured: LINJ.26.0600 | Leishmania donovani axenic amastigote extract | 10 µM | reference: vehicle | relative abundance | 0.67
CC(=O)N[C@@H](CCCNC(=N)N)C(=O)N[C@H](C(=O)N[C@@H](CCCCN)C(=O)N[C@@H](CO)C(=O)N[C@@H](CCCNC(=N)N)C(=O)N[C@H](C(=O)N[C@@H](Cc1c[nH]c2ccccc12)C(=O)N[C@@H](C)C(=O)N[C@H](C(N)=O)C(C)C)[C@@H](C)OP(=O)(O)O)[C@@H](C)O | 14-3-3 protein epsilon (Homo sapiens, UniProt P62258) | surface plasmon resonance |  | 298 K |  | binding free energy | -9.12 ± 0.02 kcal/mol
CN(C)[C@H]1C[C@@]23CC[C@@]4(O2)C(=CC[C@]2(C)[C@@H](c5ccc6ccncc6c5)CC[C@H]24)C=C3[C@@H](O)[C@@H]1O | MATK (Homo sapiens, UniProt P42679) | ATP probe labelling, inhibitor, KiNativ profiling |  | 1 µM |  | inhibition | 7.9%
CCCCN(CC)CCNC(=O)c1cc2c(-c3ccc(Cl)cc3)nn(C)c2s1 | RAD52 (Homo sapiens, UniProt P43351) | ssDNA annealing, fluorescence quenching |  |  |  | IC50 | 6.8 µM
CCC[C@H](C(=O)c1ccccc1)N1CCCC1 | SLC6A3 (Homo sapiens, UniProt Q01959, V152I) | transporter uptake, inhibitor, radiometric |  |  |  | Ki | 0.295 µM
CCCCCn1cc(C(=O)c2ccc3ccccc3c2)c2ccccc21 | CNR1 (Homo sapiens, UniProt P21554, F170A) | G protein activation, agonist, BRET |  |  |  | EC50 | 1.7 µM
COc1cc2c(cc1O)C(CCc1ccc(Cl)cc1)N(C)CC2 (stereo not shown) | ADRA2C (Homo sapiens, UniProt P18825) | cell-free assay, radioligand |  |  |  | Ki | 0.14 µM
Cc1ccc2c(C(C[N+](=O)[O-])c3cccs3)c(-c3ccccc3)[nH]c2c1 (stereo not shown) | CNR1 (Homo sapiens, UniProt P21554, S199A) | G protein activation, agonist, BRET |  |  |  | EC50 | 1.16 µM

Some of these lines once more:
Structure (SMILES) | target or system | test | system | conditions | scale | endpoint | value
O[C@H]1[C@H](n2cnc3c(N[C@@H](C4CCC4)C4CC4)nc(I)nc32)[C@H]2C[C@@]2(C(F)F)[C@H]1O | HTR2C (Homo sapiens, UniProt P28335) | calcium signal, antagonist |  |  |  | Kb | 3.28 µM
CS(C)(=O)=Nc1ccc(-c2ccc(-c3nc4cc(O[C@@H]5CO[C@H]6[C@@H]5OC[C@H]6O)[nH]c4cc3F)cc2)cc1 | MET (Homo sapiens, UniProt P08581, Y1230D) | enzyme activity, inhibitor |  | 10 µM |  | inhibition | -45%
